Measurements gathered from unrelated publications.
A part holds a random share of what one study measured. Values joined by “and” are separate records of one study, mostly repeats; a detail may differ.

Series 1
SMILES: Cc1ncsc1-c1ccc(C2(NC(=O)C3CC(O)CN3C(=O)C(NC(=O)c3ccc(COc4c(-c5c(C)c(F)cc6[nH]ncc56)c(C5CC5)cc5c(N6CC7CC6CN7)nc(OC6CCOCC6)nc45)cc3)C(C)(C)C)CC2)cc1 (stereo not drawn)
Cell line: AsPC-1
Method: in-cell ELISA
Setting: individual replicates
conditions	phospho-ERK1/2 level
3 µM	22% and 11.4% and 19.5% and 16.4% and 9.45% and 9.25%
300 pM	101% and 99.1% and 89.2% and 105%
10 µM	14.4% and 22.3% and 14.5% and 8.56% and 12.9% and 9.01%
3 nM	98.8% and 93.3% and 97.8% and 86.5% and 102%

Series 2
Compound: CCN1C(=O)C(O)(C(=O)O)Oc2cc(F)ccc21 (stereo not drawn)
organism	assay	system	conditions	inhibition
Triticum aestivum	fresh weight		soil surface spray, 150 g ai/ha, 21 days, pre-emergence crop safety	0.8% and 0.7% and 0.9%
Arabidopsis thaliana	hypocotyl length	Col-0, seedlings	50 µg/mL	32.4%
Arabidopsis thaliana	root length	Col-0, seedlings	6.25 µg/mL	17%
Arabidopsis thaliana	root length	Col-0	100 µg/mL, 7 days, seed germination, dark	72.4%
Arabidopsis thaliana	hypocotyl length	Col-0, seedlings	6.25 µg/mL	15.3%
Arabidopsis thaliana	root length	Col-0, seedlings	100 µg/mL	72.4%
Arabidopsis thaliana	hypocotyl length	Col-0, seedlings	3.125 µg/mL	8.16%
Arabidopsis thaliana	hypocotyl length	Col-0	3.125 µg/mL, 7 days, seed germination, dark	8.2%
Arabidopsis thaliana	root length	Col-0, seedlings	12.5 µg/mL	29.7%
Alopecurus japonicus	fresh weight		150 g ai/ha, pre-emergence treatment	44.5% and 45.3% and 42.5%
Zea mays	fresh weight		soil surface spray, 150 g ai/ha, 21 days, pre-emergence crop safety	5.5% and 5.4% and 4.1%
Eclipta prostrata	fresh weight		150 g ai/ha, post-emergence treatment	45% and 44.4% and 48.7%
Arabidopsis thaliana	root length	Col-0	12.5 µg/mL, 7 days, seed germination, dark	29.7%
Arabidopsis thaliana	root length	Col-0	3.13 µg/mL, 7 days, seed germination, dark	10.8%

Series 3
Compound: C[C@@H]1CN(c2ccc(-c3cc(C(=O)NCCOCCOCCOCCOCCNC(=O)/C=C/c4[nH]cc(C(=O)N[C@@H](CC(N)=O)c5ccc(F)c(Cl)c5)c4-c4ccc(Cl)cc4F)ccc3F)cc2NC(=O)c2c[nH]c(=O)cc2C(F)(F)F)C[C@H](C)N1C
Read-out: thermal unfolding
Method: differential scanning fluorimetry
Tested at: 5.5 µM
Direction: higher = more unfolded
WDR5: WD repeat-containing protein 5 (WDR5, Homo sapiens, UniProt P61964)
DCAF1: DDB1- and CUL4-associated factor 1 (DCAF1, Homo sapiens, UniProt Q9Y4B6)
Sequence of UniProt Q9Y4B6 (whole entry, looked up): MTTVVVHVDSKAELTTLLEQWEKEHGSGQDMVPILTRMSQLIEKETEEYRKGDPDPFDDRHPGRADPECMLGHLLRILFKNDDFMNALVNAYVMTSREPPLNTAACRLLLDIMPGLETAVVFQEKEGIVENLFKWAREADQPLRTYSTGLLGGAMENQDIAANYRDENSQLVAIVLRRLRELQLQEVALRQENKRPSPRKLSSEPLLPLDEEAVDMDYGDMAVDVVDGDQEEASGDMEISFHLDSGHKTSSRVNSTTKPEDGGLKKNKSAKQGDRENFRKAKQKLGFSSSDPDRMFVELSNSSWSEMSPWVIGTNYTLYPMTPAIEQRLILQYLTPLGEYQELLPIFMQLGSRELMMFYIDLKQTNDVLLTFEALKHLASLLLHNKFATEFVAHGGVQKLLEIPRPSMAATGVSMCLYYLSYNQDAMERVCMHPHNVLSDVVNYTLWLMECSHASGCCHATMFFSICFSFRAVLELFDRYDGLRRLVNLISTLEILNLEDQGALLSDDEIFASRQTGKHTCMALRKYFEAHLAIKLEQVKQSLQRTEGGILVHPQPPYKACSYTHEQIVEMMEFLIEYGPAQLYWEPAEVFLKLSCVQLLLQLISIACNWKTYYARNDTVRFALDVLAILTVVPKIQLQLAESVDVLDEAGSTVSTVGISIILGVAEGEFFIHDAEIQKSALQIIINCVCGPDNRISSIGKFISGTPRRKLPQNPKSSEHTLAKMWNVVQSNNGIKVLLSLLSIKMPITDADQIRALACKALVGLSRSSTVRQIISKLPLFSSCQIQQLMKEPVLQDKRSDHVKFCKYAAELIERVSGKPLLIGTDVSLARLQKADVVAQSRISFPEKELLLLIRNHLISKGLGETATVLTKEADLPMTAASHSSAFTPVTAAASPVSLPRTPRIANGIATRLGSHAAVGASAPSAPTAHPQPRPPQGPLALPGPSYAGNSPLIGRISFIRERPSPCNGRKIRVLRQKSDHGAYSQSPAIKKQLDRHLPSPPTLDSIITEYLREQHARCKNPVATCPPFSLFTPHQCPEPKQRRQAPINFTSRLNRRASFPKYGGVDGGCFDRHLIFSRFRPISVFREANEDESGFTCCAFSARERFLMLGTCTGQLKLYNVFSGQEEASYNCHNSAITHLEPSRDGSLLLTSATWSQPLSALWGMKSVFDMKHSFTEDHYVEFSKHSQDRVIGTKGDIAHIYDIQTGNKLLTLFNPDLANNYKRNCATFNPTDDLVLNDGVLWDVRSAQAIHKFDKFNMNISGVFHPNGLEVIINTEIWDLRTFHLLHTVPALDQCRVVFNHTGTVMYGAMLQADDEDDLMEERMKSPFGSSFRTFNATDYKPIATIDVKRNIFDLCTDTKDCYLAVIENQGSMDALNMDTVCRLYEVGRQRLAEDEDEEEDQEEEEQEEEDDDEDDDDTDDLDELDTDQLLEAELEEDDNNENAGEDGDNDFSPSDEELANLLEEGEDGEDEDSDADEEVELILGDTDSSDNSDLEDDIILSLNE
target	conditions	SYPRO Orange fluorescence [a.u.]
WDR5	82.81 °C	48100
DCAF1	33 °C	9790
DCAF1	92.81 °C	31800
WDR5	46.6 °C	15600
WDR5	79.61 °C	39300
WDR5	86.01 °C	53300
WDR5	66.41 °C	14000
WDR5	40.8 °C	14000

Mixed results
PKMYT1: Membrane-associated tyrosine- and threonine-specific cdc2-inhibitory kinase (PKMYT1, Homo sapiens, UniProt Q99640)
Sequence of UniProt Q99640 (whole entry, looked up): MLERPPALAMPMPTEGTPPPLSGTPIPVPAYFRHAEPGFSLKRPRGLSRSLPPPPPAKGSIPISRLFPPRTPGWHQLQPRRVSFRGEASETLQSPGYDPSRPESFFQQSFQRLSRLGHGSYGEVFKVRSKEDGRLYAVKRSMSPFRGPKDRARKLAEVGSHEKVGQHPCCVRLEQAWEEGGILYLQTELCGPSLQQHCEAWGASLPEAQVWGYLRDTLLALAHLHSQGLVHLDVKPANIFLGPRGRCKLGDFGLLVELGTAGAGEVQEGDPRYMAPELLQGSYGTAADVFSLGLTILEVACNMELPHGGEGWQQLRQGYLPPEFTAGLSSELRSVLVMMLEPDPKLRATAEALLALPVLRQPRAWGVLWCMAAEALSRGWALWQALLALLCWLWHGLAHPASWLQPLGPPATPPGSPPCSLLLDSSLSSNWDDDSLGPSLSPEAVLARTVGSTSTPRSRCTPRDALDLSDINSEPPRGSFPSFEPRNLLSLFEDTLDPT
Compound	tested on	assay	system	conditions	how to read	quantity	value
Cc1ccc(O)c(C)c1-c1cnc2[nH]c(-c3cnc(N)nc3)cc2c1C#N			male Sprague-Dawley rat, plasma	intravenous		clearance	1.06 L/h/kg
Cc1ccc(O)c(C)c1-c1cnc2[nH]c(-c3cnc(N4CCC(CCN5CCN(c6cc7c(cc6F)c(N6CCC(=O)NC6=O)nn7C)CC5)CC4)nc3)cc2c1C#N	PKMYT1	binding, HTRF		0.15 nM		inhibition	-0.989% and -0.689%
Cc1ccc(O)c(C)c1-c1cnc2[nH]c(-c3cnc(N4CCC5(CC4)CC(N4CCN(c6ccc(N[C@H]7CCC(=O)NC7=O)cc6F)CC4)CO5)nc3)cc2c1C#N (single isomer, unassigned)	PKMYT1	immunoblotting		0.1 µM, unit not given	reference: untreated	protein level	0.298 and 0.221 and 0.336
Cc1ccc(O)c(C)c1-c1cnc2[nH]c(-c3cnc(N4CCC(CN5CCN(c6ccc7c(c6)C(=O)N(C6CCC(=O)NC6=O)C7=O)CC5)CC4)nc3)cc2c1C#N (stereo not drawn)	PKMYT1	immunoblotting	HCC1569	1 µM, 24 h		remaining protein level	7.07%

Some of these lines once more (series 2):
organism	assay	system	conditions	inhibition
Arabidopsis thaliana	hypocotyl length	Col-0	3.125 µg/mL, 7 days, seed germination, dark	8.2%
Arabidopsis thaliana	hypocotyl length	Col-0, seedlings	3.125 µg/mL	8.16%
Arabidopsis thaliana	root length	Col-0, seedlings	6.25 µg/mL	17%
